Assay results pooled from the literature.
± gives the spread as reported.

SMILES | assay | test system | conditions | scale | endpoint | result
Fc1ccc([C@@H]2CCNC[C@H]2COc2ccc3c(c2)OCO3)cc1 | measured: Insomnia | healthy volunteers | oral, dose not given, given -1 h relative to LSD, together with: LSD | direction not given | List of Complaints score | 2 score
CCc1ccc(CC/C=C/c2ccc3c(c2)C(=O)CC3)cc1 |  | Sprague-Dawley rat, male, blood | oral, 120 mg/kg/day, 14 days |  | large unstained cells | 1.47%
C[C@@H](c1nc(-c2ccc(C#N)cc2)cs1)[C@](O)(Cn1cncn1)c1cc(F)ccc1F | measured: blood creatinine increased | humans | oral, dose not given, together with: midazolam |  | subjects with TEAEs | 8.7%
C[C@@H](NC(=O)N1C(=O)[C@H](Cc2ccnc(N)c2)[C@H]1C(=O)O)C1CCCCC1 |  | healthy adult Chinese volunteers | continuous intravenous infusion, 1.5 mg/kg/h, 5-day infusion, CTCAE 5.0 grading |  | incidence of drug-related AEs | 0%
O=C(Nc1ccccc1)C1CCN(C(=O)Oc2cccnc2)CC1 | psychotropic effects VAS | healthy women | 20 mg | reference: pre-dose baseline, direction not given | change in Drowsy score | 13
CCC[C@@](N)(CO)CCc1ccc(OCCCCCC(C)C)cc1 |  | male Sprague-Dawley rat | oral, 30 mg/kg, 6 h | reference: brain over plasma | brain to plasma ratio | 36
CCCSc1ccc2nc(NC(=O)OC)[nH]c2c1 |  | mouse, blood | oral, 50 mg/kg, tolerability, mean |  | creatinine | 25.4 µmol/L
COc1cc2c(Oc3ccc4[nH]c(C)cc4c3F)ccnc2cc1OCC1(N)CC1 |  | paediatric recurrent refractory sarcoma | 10 mg |  | grade 3 abdominal distension | 0%
CC(C)CC(=O)OC[C@H]1O[C@@](C#N)(c2ccc3c(N)ncnn23)[C@H](O)[C@@H]1O | plasma protein binding | dog plasma | 0.9 µM |  | bound fraction | 0.634
COc1cc2nccc(Oc3ccc(NC(=O)C4(C(=O)Nc5ccc(F)cc5)CC4)cc3)c2cc1OC |  | human, plasma | oral, 60 mg once daily, 1 month, together with: grapefruit juice |  | trough plasma concentration | 252 ng/mL
Clc1ccc(Cl)c(-c2cc(Cl)ccc2Cl)c1 |  | Sprague Dawley rat, thymus | intraperitoneal, 100 mg/kg |  | organ weight | 0.45 g
COc1ccc(-c2c(-c3ccc(C#N)c(F)c3)nc(N3CCC(N)CC3)n(C)c2=O)cc1F | measured: Cholecystitis | human patients | oral, 60 mg, dose expansion |  | serious adverse event incidence | 0%
CO[C@H]1C[C@@H]2CC[C@@H](C)[C@@](O)(O2)C(=O)C(=O)N2CCCC[C@H]2C(=O)O[C@H]([C@H](C)C[C@@H]2CC[C@@H](OC(=O)NCCOCCOCCOCCOCCOCCOCCOCCOCCC(=O)N3CCc4cc(Cn5nc(-c6ccc7oc(N)nc7c6)c6c(N)ncnc65)ccc4C3)[C@H](OC)C2)C[C@@H](O)[C@H](C)/C=C(\C)[C@@H](O)[C@@H](OC)C(=O)[C@H](C)C[C@H](C)/C=C/C=C/C=C/1C | phase 1 dose escalation, measured: vomiting | advanced solid tumour patients | intravenous, 10 mg weekly, grade ≥3 |  | TRAE incidence | 0%
Oc1ccc(CSCc2ccc(O)cc2)cc1 |  | ICR mice male | oral, 6000 mg/kg, day 1 before dosing, acute toxicity |  | body weight | 29.9 ± 0.93 g
